Assay results pooled from the literature.
Numbered parts are unrelated; each lists some results of a single study.

Series 1
Target: Histone acetyltransferase KAT6A, winged helix 1, GST fusion (KAT6A, Homo sapiens, UniProt Q92794, residues 1-85)
Method: protein binding microarray
Form: double-stranded DNA, one strand shown
Matrix: in vitro
Concentration: not given
Setting: 8-mer, flanks averaged, mean of 2 arrays, mostly near background
Relative to: not given
Reading: higher = stronger binding
Residues (chain): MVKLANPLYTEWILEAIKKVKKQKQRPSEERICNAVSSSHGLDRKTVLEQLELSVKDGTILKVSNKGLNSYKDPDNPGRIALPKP
| Strand | E-score |
| --- | --- |
| CGGGGAAG | 0.22 |
| ACACATGC | -0.0123 |
| AAGTTATG | -0.117 |
| CTGCTACA | -0.116 |
| CACTTCCA | -0.0655 |
| CTCCTTCA | -0.187 |
| GGATGGTA | -0.232 |
| AAGTAAAC | -0.146 |
| GTAAACGA | 0.0617 |
| CGGACGGC | 0.451 |
| CCGTACCG | 0.398 |
| ACATTGAG | 0.0253 |
| ATCCCTCA | -0.0317 |
| CGGGTATC | 0.25 |
| CCGCTATC | 0.248 |
| AAGCCTGT | -0.0352 |
| AGAGTGGA | -0.182 |

Series 2
Target: Interferon regulatory factor 3, full length, phosphomimetic (IRF3, Homo sapiens, UniProt Q14653, residues 1-427, S386D/S396D/S398D/S402D/T404D/S405D)
Method: protein-binding microarray
Form: double-stranded DNA, one strand shown
Matrix: in vitro
Concentration: 2540 nM top
Setting: 60-bp whole probe
Together with: salmon DNA 0.4 mg/ml
Relative to: random background probes
Reading: higher = stronger binding
Shared flanks, not repeated: GCCTAGCAC … GTCTTGATTCGCTTGACGCTGCTG
Target sequence (chain): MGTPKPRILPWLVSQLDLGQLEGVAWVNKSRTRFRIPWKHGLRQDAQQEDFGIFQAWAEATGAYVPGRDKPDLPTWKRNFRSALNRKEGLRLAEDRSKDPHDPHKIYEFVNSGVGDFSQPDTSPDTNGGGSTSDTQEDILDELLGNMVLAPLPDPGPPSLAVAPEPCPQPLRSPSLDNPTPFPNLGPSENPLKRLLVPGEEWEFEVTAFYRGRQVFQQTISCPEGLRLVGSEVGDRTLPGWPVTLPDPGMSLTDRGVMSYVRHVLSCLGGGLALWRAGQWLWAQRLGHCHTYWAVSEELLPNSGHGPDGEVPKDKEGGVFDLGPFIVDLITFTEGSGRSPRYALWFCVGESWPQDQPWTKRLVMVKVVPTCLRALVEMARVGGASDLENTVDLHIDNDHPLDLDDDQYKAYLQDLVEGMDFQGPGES
| Strand | fitted relative affinity [z-score] |
| --- | --- |
| GACGATTTCGGGTATCGAGAAGTGCTA | 1.76 |
| TGAGGACTGGGTATCGGTTAGTGCTAG | 0.221 |
| TTAGATCTCGGTTTCGATTAGTGCTAG | 3.71 |
| GACGGTTTCGACACTGAGGACGTGCTA | 3.3 |
| TTCGAACTGAGTATCGATTAGTGCTAG | 0.394 |
| TTTGCTTTCCTTCTTGAACTGTGCTAG | 8.33 |
| GACGGTTTCGGCACTGGGGACGTGCTA | 2.87 |
| ATAGAACTGGGGTATCGATTAGTGCTA | -0.26 |
| ATAGGTATCGACTTTCGGTTAGTGCTA | 2.15 |
| TGAGCACCCAGAGCCGCCTGGTGCTAG | -0.796 |
| GACGGTTTGGACTATCGGGACGTGCTA | 0.0552 |
| GACGATTCCAGGTTCGAGACGTGCTAG | 0.665 |
| TCAAGTGTGTGTCTGATACTGTGCTAG | -0.428 |
| CTCACCGCCAACCCAGTTCCGTGCTAG | 0.0688 |
| TTAGATTTCGGGTATCGATCAGTGCTA | 1.36 |
| TCAAACTTGTATTTGTCACTGTGCTAG | -0.0842 |
| TTTTCTCTCCCATTCTGAATGTGCTAG | 3.46 |
| ATTGTTTCCTTCCTCTTTTAGTGCTAG | 7.37 |
| GACGGACTGCTTTTACTGACGTGCTAG | -0.296 |
| GACGGTTTCGATTCCGGGACGTGCTAG | 8.22 |
| GACGGACTGGGTCTCGGGATGTGCTAG | -0.872 |
| TTAGAGATCAGTTTCGATTAGTGCTAG | 4.64 |
| AACGGTTTCCTTTTCCTGACGTGCTAG | 11.1 |
| TCAGAAATCTCTTTCCTACTGTGCTAG | 1.74 |
| GACGAACTGGGGACTGGAGCCGTGCTA | -0.706 |

Series 3
Target: RING finger protein unkempt homolog, zinc fingers 1-6, GST-SBP tag (UNK, Homo sapiens, UniProt Q9C0B0, residues 30-357)
UniProt Q9C0B0, sequence (30-357, looked up): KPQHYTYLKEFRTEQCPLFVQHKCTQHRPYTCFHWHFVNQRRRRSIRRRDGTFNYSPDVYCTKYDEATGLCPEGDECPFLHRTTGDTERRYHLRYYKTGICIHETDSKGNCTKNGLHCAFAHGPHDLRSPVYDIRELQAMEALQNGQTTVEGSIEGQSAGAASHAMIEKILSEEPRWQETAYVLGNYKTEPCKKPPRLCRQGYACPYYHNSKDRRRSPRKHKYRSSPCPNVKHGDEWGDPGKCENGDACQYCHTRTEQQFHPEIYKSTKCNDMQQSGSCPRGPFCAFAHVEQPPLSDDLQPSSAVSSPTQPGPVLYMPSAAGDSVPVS
Method: RNA Bind-n-Seq
Form: RNA
Matrix: in vitro
Concentration: not given
Setting: RNA with constant flanks, human and mouse sites, ends assumed
Relative to: input RNA pool
Reading: higher = stronger binding
Shared flanks, not repeated: GGGAGUUCUACAGUCCGACGAUC … CAACAGAGGAUUGAGCAUCA
| Strand | bound/input enrichment [ratio] |
| --- | --- |
| ACCUGGAAUAAUGAGAUCUUACCUAACUGGGAAACAAUGUGGUGCUCUAGAAAAGUUCGAGAUUUAUGGUGGCAGGGAAUCCCUCCAAGUGUGAGAGGCAAAGUCUGGAGCUUAGCCAUU | 0.317 |
| CUGAGCAGAUCUGAACUUAUGUCAGUCACUCCCAAUACAGGGAUGAGUCUCUUUAUCAUAAACUUUGAGGAAGGAAGAGAAGUUAAACCAACGGUUCAGUGUAUUUGUAUGAACCUACAG | 0.142 |
| GCAGCUGCGGCGCGUUUCUAUUCCAAGGACAAUGAAGGCAGCUGGUUCCGCUCCCUCUUUGUUCACAAAGUGGAUCCCCGGAAGGAUGCCCACUCCACCCUGCUGUCCAAGAAGGAAACC | 0.0805 |
| UUCAGCCCUUUCACCUAACAGGCCCAUAUUCGGGCCUUUGCCUGACCAAAGAGAAGAACCGUAUGUUCCCUUUACUGCACGGCCUUUAUCCUUCUGGGCCCCUGGGGCGGGGACCUGAGC | 0.0787 |
| AUUGCCUCCAGUGUUACCUUGGACUGAGCCAGAAUGUGAUUUUCCUGAUGAAAAAGACUCAUACUGGGAAUUCUAGGGCUGCCAAAUCAUUUUAUGUCCUAUAUACUUGACACUUUCUCC | 0.214 |
| AAGCUUGAAGAAGAUGUAGAUCUUGGCUAUGUGGAAGAUGGGACACCUUGUGGUCCCCAAAUGAUGUGCUUAGAACACAGGUGUCUUCCUGUGGCUUCUUUCAACUUUAGUACUUGCUUG | 0.283 |
| GGUGUUGCGAGUAUAGGAGGCAAAAUUGCACCCUGUUGAAAACCACCACCUUAGAUCAUCUAGGUUUUACUUUUAGGAUAAGACACUUGAGGGAAAGGCUGUGAAACUGAACCUCUGUUA | 1.78 |
| CAUGCCCUCAGCCACAAGCGGGUGACUGACUGUUCCCUGAUGAUUUGGCCCACCUCCUGUGUUUGGACCUCUAGGGAGGAGGGUUUUGGUCAUACUCUCCUUAUCCUCGUGCACAGAAAU | 0.162 |
| GCAUCCUGUGAAAAUACUCUUAAUACGUUAAGAUAUGCAAAUAGAGUAAAGGAGUUUGGAAUUAGUCCUUCAGACAUUCCCUUCUCCCAGGGUGGUGGCAGUCGCCCUGAUCUCUCUCCU | 0.125 |
| GACCAUAUCAAGAAACUCAGUACUGAUGUGGAUUUGAUUGUUGAAGUGCUAAGAUCUUUACCUUUAGUCCAAGUGGAUGAGAAGGGAGAGAAAGUAAGGCCAAAUCAGAACCGGUGCAUA | 0.19 |
| GAGAUGGAAGAGGAAACAUCAGGCUAUGGCUUUAAGCCGAAAUAUGAUGGAGAAGAUCUUGCUUACACAGUGAAAAAUCUGAGACGAAGUACAAAGUAUAAAUUUAAGGUCAUUGCUUAU | 0.25 |

Series 4
Target: RNA binding protein fox-1 homolog 2, RRM domain, GST-SBP tag (RBFOX2, Homo sapiens, UniProt O43251-10, residues 100-194)
Method: RNA Bind-n-Seq
Form: RNA
Matrix: in vitro
Concentration: 365 nM
Setting: natural RNA segment, single round, ends assumed
Relative to: no-protein control
Reading: higher = stronger binding
Shared flanks, not repeated: GGGAGUUCUACAGUCCGACGAUC … UGGAAUUCUCGGGUGCCAA
Residues (chain): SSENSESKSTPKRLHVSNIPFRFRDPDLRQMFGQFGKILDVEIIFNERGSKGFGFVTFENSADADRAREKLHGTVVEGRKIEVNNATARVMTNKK
| Strand | RBNS enrichment (R) |
| --- | --- |
| UCCUAGAACUUUAUUUGUAGACCAGGUUGGCCUGGAAUUUACAGAGAUCUGCCUACCUCUCUGCCUAUGCCUAAGCCUAAGCCUAAGCCUAAGCCUAAGCCUAUGCCUAU | 0.334 |
| CAGAACGCCUGUGUUUACAUUGUUUUUAUGGAACUAGCAGAAUAAAACAUCUAUUUUAAAAAUGAAAGCCAUUGUUUCUCUAAUUUAUCUGACAAAGUGAGCAGCUUAAA | 0.436 |
| CUGCCUAAGCACAUAACUUUCAAGUUUGUACUAUGAUCCAUGCACUCAUUAAUACCUUGCUCUGCAGUUAUUUUCUAGCAGUCUAUAUAGUAGUUUCACAUCUGUAUUAU | 0.267 |
| UGUGAUUUUAGUUUUCAUUUGUGUUUAUGUCUGUGCUGCAGACGGAUGGGUGGGGUGCGCUUCUUUAUACCAGGAGCACGUGGCUCUUUCUGACCUUUGGCCUGUUCUAG | 0.474 |
| CCCUUACCCCUGCUGCUUCAGGGUUUUUCCCCGGCGGGUUGGGAGGGGCAGGAGGUGGGGUGGAAAUAGGGUGGGCUCCUUUCCUCAGGUAGAGUGGGGGGCCAAAACCU | 0.361 |
| UGCUCCUGGGAUGCUAACCUGAUGGCCAUAGACACGGUGGGCUGGAGGCGUGGCUGGAUCUGCCCAAUCCUUCCUCAGGACCAGCCUCUCCCUUAGUAACUUGAAGGAAG | 0.445 |
| AGGGGAGGGCAGGCUUGGGGAAAAUGGCCAUGCAGGAGGUGGAGAAAAUUGGAACUCUACUCAACCCAUUGUUGUCAAGGAAGAAGAAAUCUUUCUCCCUCAACUGAAGG | 0.655 |
| ACAUGAUCCACCGUUUUAACACCUCAGUCUUUGGUAGGAUGAAAUAAUAAAUGAAGAUGCCUAAAAUAGUGUUCCAAACUUUCAUGGUCAUUUUCAUUUUUACUGAAACA | 0.26 |
| GCACUGCUGUGUGGGCCGUGCAUGAUGUUUCCCCAUCAUUUCUUAAGACUGUUUUCCUGUGUAAGUGUUGCCCUCUAGAGGUACCUAGCAGUCACCCCACAAGCCUACCA | 0.401 |
| AUGCUGCUCAGCUUGCAGUCAUGCAGGGAGCCAACGUCCUCGUAACUCAGCGGAAGGGGAACUUCUUCAUGGGUGGUUCAGAUGGUGGCUACACCAUCUGGUGAGGAACC | 0.223 |
| CCUCUCCCUCUUUCUAGCCUGGGGCUUGAAUUUGCAUGUCUAAUUCAUUUACUCACCAUAUUUGAAUUGGCCUGAACAGAUGUAAAUCGGGAAGGAUGGGAAAAACUGCA | 1.72 |
| UCAGCUGCCCAGGCCCCAGCAUGGAGAUGGCCUGCACAGCAGGCUCAGCACCUCUGAGGUGUGCAUUAGCCACUUAUAGCAGCAGUCUGUACUCUUUCAAGUACGCAAGC | 3.03 |
